Published values gathered from unrelated publications.
Each numbered part is a random draw from the data of one study; scales do not carry over between parts.

Series 1 — technique: protein binding microarray; molecule type: double-stranded DNA, one strand shown; sample: in vitro; concentration: not given; baseline: not given; direction: higher = stronger binding; measurement: E-score
Target: Histone acetyltransferase KAT6A, both winged helices, GST fusion (KAT6A, Homo sapiens, UniProt Q92794, residues 1-181)
Setting: 8-mer, flanks averaged, mean of 2 arrays, mostly near background
Target sequence (chain): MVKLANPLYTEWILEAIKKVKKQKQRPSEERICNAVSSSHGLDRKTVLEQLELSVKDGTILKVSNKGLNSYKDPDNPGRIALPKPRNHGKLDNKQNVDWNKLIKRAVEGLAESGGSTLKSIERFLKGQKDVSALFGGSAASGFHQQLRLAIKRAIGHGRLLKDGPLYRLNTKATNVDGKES
AGATAATG: -0.167
ATTAAGGC: -0.16
CGTCGGTC: 0.225
GGTCTAGA: -0.1
AGCCCTCC: -0.131
CTATACTC: -0.0222
CTAACCAG: -0.229
GGTGCTTA: -0.00122
ATACATCA: -0.184
CTCTACAA: -0.143
GATAAACA: -0.00994
GGGCTGAC: 0.0253
AACCGTTC: 0.0723
CATTTGTC: -0.194
AATCATTA: -0.0723
ACGGCTTA: 0.274
ACGCAGGC: 0.0905

Series 2 — technique: RNA Bind-n-Seq; molecule type: RNA; sample: in vitro; concentration: 365 nM; baseline: no-protein control; direction: higher = stronger binding; measurement: RBNS enrichment (R)
Target: RNA binding protein fox-1 homolog 2, RRM domain, GST-SBP tag (RBFOX2, Homo sapiens, UniProt O43251-10, residues 100-194)
Setting: natural RNA segment, single round, ends assumed
Constant ends, left off below: GGGAGUUCUACAGUCCGACGAUC … UGGAAUUCUCGGGUGCCAA
Construct (chain): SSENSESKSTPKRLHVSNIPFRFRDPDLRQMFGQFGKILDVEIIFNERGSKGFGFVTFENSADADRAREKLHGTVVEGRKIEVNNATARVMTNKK
AAACUAGAAGUUGAGAUUGUAAAACUGCUUUAAGAACUUUAAAGAAAUGAAUAUUUGAUCUCUGAUUAAUUUUUGAGACUUCUAAAUCUCUUCUUGUUUUAAGUUUCUUG: 0.466
AACAAAGGAAGGACAGCUCAUUCCUCAUGGGCGAUCACUCCGCAUCUAUAGGGUCGAGCCUAGGGGAGCUUGAGGGAGGGCUGGGGCCUCCUUGUCCUGGAUUUCCAGCU: 2.89
CACAGUGAACUGUCCCUUCUGAGUCUCCCUUUUCUACAGUUGAUAUAUUUGUAACUGGUACAAGAUGAAGGACAGCAGCUUUCCAUCCCUAGUUCAGAGCCCCCGUUCCC: 0.454
CCAAUGAUGCUGUCAGAUAUAUCUGCUUUCUCAAGUUUAAAAGAAUUCAAAUUAACUUCCUUUGAGUCUUUGUUAAAAGAGAAAAUAAAAAAAUCUCAAGCAAACUUGGA: 0.642
UUGGAUGAAACAUUCAUUUUUACCUUGUGGAUGCUAGUGCUGUAGAGUUCACUGUUGUACACAGUCUGUUUUCUAUUUGUUAAGAAAAACUACAGCAUCAUUGCAUACUU: 0.686
UUGAUUUGUAAAACCCUUGAAAUGUAGAUUUCUUGUAGAUGUAUCCUUCACGUUGUAAAUAUGUUUUGUAGAGUGAAGCCAUGGGAAGCCAUGUGUAACAGAGCUUAGAC: 0.538
ACAUCAUAGUCGGGAGCCAUUUCACCCUGUUUUUCCAGGACUGAACACCAGCUGCUGUCAAGCAAGCUUAUAUCAUGUAAAUUAUCUGAAUUAGGAGCCGUUUUGGUAAU: 0.337
UUUGCAGCCACAUGGGACUUUUCUGGGUUGACAAGAGGAUGCUCUAGUCAUGUAAGCCACUAAGAUAGAAGGCCAGUCUCAGUUUCCCUAGGGAAGAGCCCAUCCUGGAG: 0.643

Series 3 — target: UBE2J2 UBC core domain (UniProt Q8N2K1); technique: yeast two-hybrid; sample: yeast; setting: mostly zero background; baseline: not given; direction: higher = stronger interaction; measurement: lacZ reporter activity
B1: TRIM34 RING domain (UniProt Q9BYJ4); chain ILLNVQEEVTCPICLELLTEPLSLDCGHSLCRACITVSNKEAVTSMGGKSSCPVCGISYSFEHLQA
B2: NHLRC1 RING domain (UniProt Q6VVB1); chain MREAEISLLECKVCFEKFGHRQQRRPRNLSCGHVVCLACVAALAHPRTLALECPFCRRACRGCDTSD
B3: TRIM32 RING domain (UniProt Q13049); chain NLDALREVLECPICMESFTEEQLRPKLLHCGHTICRQCLEKLLASSINGVRCPFCSKITRITSLTQ
B4: RNF115 RING domain (UniProt Q9Y4L5); chain TQEQVDMGLECPVCKEDYTVEEEVRQLPCNHFFHSSCIVPWLELHDTCPVCRKSLNGEDSTR
B5: MARCHF2 RING domain (UniProt Q9P0N8); chain RLLSTVIRALDTPSDGPFCRICHEGANGECLLSPCGCTGTLGAVHKSCLEKWLSSSNTSYCELCHTEFAVEKRPRPLTEWL
B6: MDM2 RING domain (UniProt Q00987); chain TQDKEESVESSLPLNAIEPCVICQGRPKNGCIVHGKTGHLMACFTCAKKLKKRNKPCPVCRQPIQMIVLTYFP
B7: CBLL1 RING domain (UniProt Q75N03); chain GEKDDTPVHFCDKCGLPIKIYGRMIPCKHVFCYDCAILHEKKGDKMCPGCSDPVQRIEQCT
B8: TRIM47 RING domain (UniProt Q96LD4); chain MDGSGPFSCPICLEPLREPVTLPCGHNFCLACLGALWPHRGASGAGGPGGAARCPLCQEPFPDGLQLR
Target sequence (chain): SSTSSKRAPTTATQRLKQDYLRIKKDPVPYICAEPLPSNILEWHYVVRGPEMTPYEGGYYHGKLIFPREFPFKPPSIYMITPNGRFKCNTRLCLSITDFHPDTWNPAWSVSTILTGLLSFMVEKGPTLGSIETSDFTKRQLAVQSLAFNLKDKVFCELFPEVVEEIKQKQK
B1 (TRIM34 RING domain): 0
B2 (NHLRC1 RING domain): 0
B3 (TRIM32 RING domain): 0
B4 (RNF115 RING domain): 0
MEEMEEELKCPVCGSFYREPIILPCSHNLCQACARNILVQTPESESPQSHRAAGSGVSDY (TRIM9 RING domain (UniProt Q9C026)): 0
EIKDYKARLTCPCCNMRKKDAVLTKCFHVFCFECVKTRYDTRQRKCPKCNAAFGANDFHR (RNF20 RING domain (UniProt Q5VTR2)): 0
KITELNPHLMCALCGGYFIDATTIVECLHSFCKTCIVRYLETNKYCPMCDVQVHKTRPLL (PCGF2 RING domain (UniProt P35227)): 2490
PLRRLQEEKLCKICMDRHIAVVFIPCGHLVTCKQCAEAVDRCPMCSAVIDFKQRVF (BIRC8 RING domain (UniProt Q96P09)): 0
SNNDLASLFECPVCFDYVLPPILQCQSGHLVCSNCRPKLTCCPTCRGPLGSIRNLA (SIAH1 RING domain (UniProt Q8IUQ4)): 5400
B5 (MARCHF2 RING domain): 0
B6 (MDM2 RING domain): 4290
B7 (CBLL1 RING domain): 0
B8 (TRIM47 RING domain): 0

Series 4 — technique: protein-binding microarray; molecule type: double-stranded DNA, one strand shown; sample: in vitro; concentration: 2540 nM top; setting: 60-bp whole probe; with: salmon DNA 0.4 mg/ml; baseline: random background probes; direction: higher = stronger binding; measurement: fitted relative affinity; constant ends, left off below: GCCTAGCAC … GTCTTGATTCGCTTGACGCTGCTG
Target: Interferon regulatory factor 3, full length, phosphomimetic (IRF3, Homo sapiens, UniProt Q14653, residues 1-427, S386D/S396D/S398D/S402D/T404D/S405D)
UniProt Q14653, sequence (whole entry, unmodified, looked up): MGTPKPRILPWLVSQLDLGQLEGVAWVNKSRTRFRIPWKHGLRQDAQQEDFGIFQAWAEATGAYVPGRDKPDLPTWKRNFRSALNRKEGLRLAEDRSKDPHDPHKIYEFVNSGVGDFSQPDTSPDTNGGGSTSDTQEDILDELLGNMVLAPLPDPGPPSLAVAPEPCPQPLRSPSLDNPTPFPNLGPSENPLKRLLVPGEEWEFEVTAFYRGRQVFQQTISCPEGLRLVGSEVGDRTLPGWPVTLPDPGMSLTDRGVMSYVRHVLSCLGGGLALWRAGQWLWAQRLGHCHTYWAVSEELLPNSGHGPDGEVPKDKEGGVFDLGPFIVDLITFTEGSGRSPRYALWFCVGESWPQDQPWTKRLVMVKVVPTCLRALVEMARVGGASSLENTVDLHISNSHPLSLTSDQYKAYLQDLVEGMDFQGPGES
TTAGGACTGGGAATCGGTTAGTGCTAG: -0.447 z-score
TCACTTTCTGTTTTCTCACTGTGCTAG: 5.98 z-score
GACGGACTGGACTATAGGGACGTGCTA: -0.666 z-score
TTAGGTTTCGGTATCCGTTAGTGCTAG: 7.83 z-score
TTAGGTTTCGGGTTTGGGTTAGTGCTA: 4.94 z-score
TTAGGACTGGGTTTCGATTAGTGCTAG: 1.59 z-score
GTTTGTGTGTGTATGTGGTCGTGCTAG: 0.0769 z-score
TTAGGTTTCGACACTGGCTTAGTGCTA: 2.43 z-score
TTAGGTATCGTACTGCTTTAGTGCTAG: 0.926 z-score
TTCTCTTTCATTGCTGCCCTGTGCTAG: 2.2 z-score
AACGGTCTCCTACTGCTGACGTGCTAG: 1.1 z-score
GACGGTTCCCTTTTCCTCACGTGCTAG: 5.81 z-score
TCAAGTGTGCCATATTTAACTGTGCTA: 0.242 z-score
TCATCTCTAACCTCTCTAACTGTGCTA: 0.843 z-score
CACGATTTCGGGACTGGAGACGTGCTA: 1.38 z-score
GACGGATTGCTTTTCCTGACGTGCTAG: 0.953 z-score
GACGAACTGGGGTATCGAGAGGTGCTA: -0.472 z-score
GACGAACTGAGTTTGGAGACGTGCTAG: -0.24 z-score
TTAGGACTGCTACTGCTATAGTGCTAG: -0.545 z-score

Excerpt of the above (series 4):
TTAGGTTTCGACACTGGCTTAGTGCTA: 2.43 z-score
TTAGGTATCGTACTGCTTTAGTGCTAG: 0.926 z-score
TTCTCTTTCATTGCTGCCCTGTGCTAG: 2.2 z-score
AACGGTCTCCTACTGCTGACGTGCTAG: 1.1 z-score
GACGGTTCCCTTTTCCTCACGTGCTAG: 5.81 z-score
TCAAGTGTGCCATATTTAACTGTGCTA: 0.242 z-score
